Measured values collected from several papers.
Lines come from different studies, so protocols differ. Numbers after ± are the reported error.
Organism: HIV-1

| SMILES | assay | test system | setting | quantity | value |
| --- | --- | --- | --- | --- | --- |
| O=C(CCCCCCCCCCCCCCCCC(=O)Oc1c2n(cc(C(=O)NCc3c(F)cc(F)cc3F)c1=O)CC1OC3CCC(C3)N1C2=O)Oc1c2n(cc(C(=O)NCc3c(F)cc(F)cc3F)c1=O)CC1OC3CCC(C3)N1C2=O (stereo not shown) | viral replication, reverse transcriptase activity | human monocyte-derived macrophages, ADA |  | IC50 | 4.33 nM |
| Cc1[nH]c2ccccc2c1CC(=O)N[C@@H](Cc1ccccc1)C(=O)N(C)c1ccccc1 | infectivity of progeny virus | HEK293FT, NL4-3 |  | EC50 | 2100 ± 600 nM |
| CNCc1ccc2c(c1)C[C@H](CNC(=N)N)[C@H]2NC(=O)C(=O)Nc1ccc(Cl)c(F)c1 | pseudovirus infection, Env pseudovirus neutralisation | TZM-bl, clade B T/F isolate d15_410_787 |  | IC80 | 17400 nM |
| Cc1c(CC(=O)N[C@@H](Cc2ccccc2)C(=O)N(C)c2ccccc2)c2ccccc2n1C(C)C | infectivity of progeny virus | HEK293FT, NL4-3 |  | EC50 | 1200 ± 200 nM |
| CCc1nc2sc(C(=O)Nc3cccc(C(F)(F)F)c3)c(N)c2cc1C | cytopathicity, XTT | CEM-SS, RF | 6 days | EC50 | 123000 nM |
| CCCOC(=O)N1c2cc(CNC)ccc2[C@H](NC(=O)C(=O)Nc2ccc(Cl)c(F)c2)[C@H]1CNC(=N)N | viral infection | TZM-bl, CRF02_AG 235-47 Env pseudovirus |  | IC80 | 2270 nM |
| CCn1c(C)c(CC(=O)N[C@@H](Cc2ccccc2)C(=O)N(C)c2cccc(Cl)c2)c2ccccc21 | infectivity of progeny virus | HEK293FT, NL4-3 |  | EC50 | 780 ± 100 nM |
| CCN(Cc1cccc(S(=O)(=O)O)c1)c1ccc(C(=C2C=CC(=[N+](CC)Cc3cccc(S(=O)(=O)[O-])c3)C=C2)c2ccccc2)cc1 | viral replication |  |  | IC50 | 15900 nM |
| O=C(C1=C(O)C(=O)N(CCCN2CCOCC2)C1c1cccnc1)c1ccc(Br)cc1 (stereo not shown) | cytopathicity, XTT | CEM-SS, RF | 6 days | EC50 | > 30000 nM |
| CCCCCCCCCCCCCCCCCC(=O)Oc1c2n(cc(C(=O)NCc3c(F)cc(F)cc3F)c1=O)CC1OC3CCC(C3)N1C2=O (stereo not shown) | viral replication, reverse transcriptase activity | human monocyte-derived macrophages, ADA |  | IC50 | 7.11 nM |

For quick reference, copied from above:
| SMILES | assay | test system | setting | quantity | value |
| --- | --- | --- | --- | --- | --- |
| O=C(CCCCCCCCCCCCCCCCC(=O)Oc1c2n(cc(C(=O)NCc3c(F)cc(F)cc3F)c1=O)CC1OC3CCC(C3)N1C2=O)Oc1c2n(cc(C(=O)NCc3c(F)cc(F)cc3F)c1=O)CC1OC3CCC(C3)N1C2=O (stereo not shown) | viral replication, reverse transcriptase activity | human monocyte-derived macrophages, ADA |  | IC50 | 4.33 nM |
| CCn1c(C)c(CC(=O)N[C@@H](Cc2ccccc2)C(=O)N(C)c2cccc(Cl)c2)c2ccccc21 | infectivity of progeny virus | HEK293FT, NL4-3 |  | EC50 | 780 ± 100 nM |
